Measurements gathered from unrelated publications.
Every numbered part comes from another study and shows a few of its results, in no order. Changes are numbered by the printed parent chain.

Series 1
Target: ABI1, truncated, D143A, DHFR fusion (Arabidopsis thaliana)
Technique: DHFR PCA, deep sequencing
Sample: yeast
Notes: methotrexate growth selection, single substitutions
Together with: (+)-ABA 0.39 µM
Baseline: wild-type fitted maximum
Direction: higher = stronger binding
Starting sequence: PYL1, truncated, DHFR fusion (Arabidopsis thaliana); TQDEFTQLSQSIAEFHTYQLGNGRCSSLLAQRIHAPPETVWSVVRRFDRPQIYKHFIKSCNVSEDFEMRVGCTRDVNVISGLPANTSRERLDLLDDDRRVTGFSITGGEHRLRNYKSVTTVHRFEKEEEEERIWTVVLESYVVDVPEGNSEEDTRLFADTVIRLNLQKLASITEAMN; partner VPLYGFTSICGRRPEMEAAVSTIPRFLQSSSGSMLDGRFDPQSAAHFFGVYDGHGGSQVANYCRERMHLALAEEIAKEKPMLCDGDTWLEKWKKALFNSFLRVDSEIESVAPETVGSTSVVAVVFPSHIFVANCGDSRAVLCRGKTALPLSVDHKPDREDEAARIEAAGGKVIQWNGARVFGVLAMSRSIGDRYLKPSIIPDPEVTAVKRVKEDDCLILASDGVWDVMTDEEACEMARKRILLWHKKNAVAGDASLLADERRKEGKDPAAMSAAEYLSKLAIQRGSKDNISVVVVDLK
Substitution | relative binding score
A158K | -13.5%
L29Q | -4.13%
F124M | 69.7%
S104W | -8.53%
V118Q | 17%
D92Y | 2.39%
H55F | 34.8%
N165A | 8.66%
D3L | 32.3%
S87K | 5.76%
T39M | 46.1%
E109D | 104%
V100W | -4.7%
E151M | 35.5%
S26N | 6.02%
L29I | 47.6%
S87E | -19.2%
P146C | 7.68%
M176L | 28.6%
D144K | -18.7%
E89V | -5.03%
R45V | -4.56%
Y53H | 10.3%
F5P | 7.18%
I52P | -14.8%

Series 2
Target: RNA binding protein fox-1 homolog 2, RRM domain, GST-SBP tag (RBFOX2, Homo sapiens, UniProt O43251-10, residues 100-194)
Technique: RNA Bind-n-Seq
Molecule type: RNA
Sample: in vitro
Tested at: 365 nM
Notes: natural RNA segment, single round, ends assumed
Baseline: no-protein control
Direction: higher = stronger binding
All sequences stand within: GGGAGUUCUACAGUCCGACGAUC … UGGAAUUCUCGGGUGCCAA
Construct (chain): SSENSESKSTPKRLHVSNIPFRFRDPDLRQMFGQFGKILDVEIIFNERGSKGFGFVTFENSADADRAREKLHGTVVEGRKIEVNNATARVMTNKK
Sequence | RBNS enrichment (R)
UUGUAACCUACAAGUCACCAAACGAUGACUAGAAGCUGCAGUGCUGUACAGGAAUGUGAAGGGAGGCCUCUGAGCAGUCCAGGGUGUGCUUGACAAAGUCCCAAGUGCUC | 0.338
GGACUGGGGGCGGGGCCUGGGCGGGGCCGCAGCCACACCGCUGGCUCCGCAUGGUUCAUUUUCUGAUGCCCACCGAGGAGCCCCAGCCCCGUCCCAGAGGCCGCUGCCCC | 0.257
AAGCUGCCCCCGGCUGCAGCCCAGGCCAUGGACAUGUGCACCAGUAUGUACCUGCAGGCAUGGGGGGGAGGGGGGCGUGUUUCUGGGCCUGCCCCAGACACUGCCCUUGG | 0.849
UCGAACUCCUGACCUCAGGUGAUCCGCCUGCCUCGGCCUCCCAAAGUGCUGGGAUUACAGGAGUGAGCCACUGUGCCUGGCCUAUCCCACUUGGUUUUUGACUGAAGGGG | 0.226
UGUUUAGAUCCUACAGAUGACCUCUGCUACAAUAAGUACGAUGUGACUUAGUAACUGCAUAGCAGUUGGAAAGAACUGCCAACUUUUUUUUCUCAUUUUUGUUAGUAAGA | 0.689
UACUGGUGCCUGCUGCCAGCCAUCUGGGAGUGGGUGAACAGCACCCCGCCGCUUCCCCCACACGCUUGCUCGGCGCUCUGACUUCUAGGAGCACAAGAGAGGAGCCUGUG | 0.186
ACUUCCGGAGAGUUGUGGACUUUAUAGAUGAAGGGGUCAACAUUGGCUUAGAGGUGAAGAGCAAGACUGGCAAGCUCCAGGAUUUCAAAUCCUUCCUGCUUAAGGACUCA | 0.636
GAGCGGCUCCUGAGGAGAGCCGCCAAGGCUGCUCGCCUUCUCCGUGGCUUCCGCAGCUACCGUCUGCACGGUGAGAGGGCACGGGCACACGGUUCGGGCUGGCGUGCAGC | 0.552

Series 3
Target: CCNF, cyclin fold, Cln2 fusion (human)
Technique: yeast growth competition, sequencing
Sample: yeast
Notes: strong parent motif
Baseline: not given
Direction: higher = stronger binding
Starting sequence: SCAPER docking peptide (human); SNARRSLNFGGST
Substitution | normalised enrichment score
G11S | 7.93
R4L | 1.41
S1Q | 7.42
N2Q | 6.49
S1C | 8.4
S12R | 5.77
L7S | 0.993
F9I | 1.63
S12C | 7.79
S12K | 6.69
N8F | 8.28
S1Y | 8.39
G10I | 5.4
G10T | 6.69
S12Q | 7.65
A3T | 7.29
S6Q | 7.75
S12I | 7.61
N8R | 7.03
F9P | 1.52
T13N | 7.57

Series 4
Target: Hepatocyte nuclear factor 3-alpha (Foxa1, Mus musculus, UniProt P35582, residues 1-468, full length assumed)
Technique: EMSA with sequencing
Molecule type: double-stranded DNA, one strand shown
Sample: in vitro
Tested at: 10 and 20 nM
Notes: whole designed probe, mean of two concentrations, ends assumed
Baseline: negative control set to 0
Direction: higher = stronger binding
All sequences stand within: GTGAGCGGTGCCCATTGATGGGGAAC … TTTCACTGGGATCGTGGGGAC
Construct (chain): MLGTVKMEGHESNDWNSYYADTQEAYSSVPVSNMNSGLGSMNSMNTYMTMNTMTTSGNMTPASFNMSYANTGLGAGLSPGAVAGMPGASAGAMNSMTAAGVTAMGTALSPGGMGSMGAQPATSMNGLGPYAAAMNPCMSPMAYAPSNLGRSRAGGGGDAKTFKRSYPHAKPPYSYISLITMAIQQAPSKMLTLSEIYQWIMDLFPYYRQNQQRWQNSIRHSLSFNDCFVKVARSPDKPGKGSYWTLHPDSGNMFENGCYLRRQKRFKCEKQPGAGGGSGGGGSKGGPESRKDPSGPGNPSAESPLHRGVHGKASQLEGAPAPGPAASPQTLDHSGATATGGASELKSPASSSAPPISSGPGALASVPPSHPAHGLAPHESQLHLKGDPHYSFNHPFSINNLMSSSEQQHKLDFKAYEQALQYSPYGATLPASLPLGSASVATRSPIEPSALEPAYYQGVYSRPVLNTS
Sequence | normalised bound fraction
ATCTTCCCCCTCTTCCTTGCCCCACCAGCTCACCTTCCCGGGTATATTGGAGATAGTATTTATTTTCAAGCCGGCATTCGTTAACCCTCTTCTGGCGCAAACTGCCAGAGCAAACAGATGAATCATGGTCCTTTGGCGACGCCAGGCTCCGGGAGAGCAAAGCACCGTGTCAGGGCCATGATCCGGGGTGGCC | 0.231 ratio
ACTCAAATTCTATTTTGACTGTTGAGAATCAAATACATCTTTAATGGGTTAATGTTGGCAATAATCGAAAGTGTTTTAGCTAACATTCATGTGTAAACAAGGACAAACATTGGCAAATGTGATAATTACTACATAAGTTGTAAATTCATATGGAAAATGCATTTACTAATTCAGTCAGGGATAGGCTGTGATG | 0.353 ratio
CAGTATTTTTCTTTTTACATTAATATTCCCTTAAAAACATTACCTGGAATGATCCTCTGTGCATGGAGAAGTACACATTCTGCAATGATAAGTGTAATCTAAACTGAACATTTTATTTCTCCCTTTTTGCTATTCTCTGACCTGCAGTGCATTCCAATACTTTCTGCTTTCAGTTAACACGCAGTTCTTTATT | 0.00128 ratio
AATTATAAATATATAATTATAAATTTATATAAAAATATGTAATTATAAATATGTAATTATATCTAATAGGGTATATTATTTTTTCTAAAACAAAGTAAACATACAAATGAGAGATTAAACAAATTAGCATAACATAAATTTATCTGCTCTAAAGCTGGGAAAAGATGTGAAAGAAATTATTTTTGTCTTTAAA | 0.412 ratio
ATGTGCTAAAAATACAAGACTTGCTTACGCAGAGAGCCGGGAGCTATGTTCCAGTGAGGGTGGAAACAAAAGCCTCAGTATAAGACTGTCAGGTGTTTACACTTGCTCATGTGGCAAAGGGTGTGGTACACGAGGTTGCTGGACTCCACATGCTGAGGCTCAAAGTAGAAATCACTGATCTTATGTCACATAT | 0.266 ratio
